Measured values gathered from unrelated publications.
A part holds a random share of what one study measured. Changes are numbered by the printed parent chain.

Sample 1
Target: Interferon regulatory factor 5, full length, phosphomimetic (IRF5, Homo sapiens, UniProt Q13568-2, residues 1-514, K96S/S451D/S453D/S456D/S462D)
Technique: protein-binding microarray
Form: double-stranded DNA, one strand shown
Medium: in vitro
Tested at: 250 nM
Setting: 60-bp whole probe
Added: salmon DNA 0.4 mg/ml
Reference: random background probes
Reading: higher = stronger binding
All sequences stand within: GCCTAGCAC … GTCTTGATTCGCTTGACGCTGCTG
Sequence	log fluorescence [z-score]
TTAGGTATCGACGTTCGGTTAGTGCTA	2.44
GACGATACCGGGTATCGAGACGTGCTA	1.22
TCAGATTTCAGTTTCGATTAGTGCTAG	10.4
GACGATATCAGTATCGAAACGTGCTAG	5.97
TTAGGACTGGGATTGGGTTAGTGCTAG	-0.393
GACGGTTTCGACAATGGGGACGTGCTA	5.23
TTAGGTTACGGGTTTCGGTTAGTGCTA	7.29
TTAGGTATCGGGTATCGGTCAGTGCTA	6.39
GAGGAACTGAGTCTCGAGACGTGCTAG	-0.475
TTAGAAGTGGGGTTTCGATTAGTGCTA	5.97
TTAGGTATCGACACCGGGTTAGTGCTA	2.46
TTAGGTTTCGGTTCCGGATAGTGCTAG	10.4
TTAGGTCTCGACTATCGGTTAGTGCTA	5.86
TTAGGACTGGGGTTTCGGGTAGTGCTA	2.89
TCAGATCTCAGACTGTGACTGTGCTAG	-0.417
TTAGGACTGAGTCTCGATTAGTGCTAG	0.279
GAAGGTTTCGGTTTCGGGACGTGCTAG	10.4
GACGAACTGAGTCCCGAGACGTGCTAG	-0.398
GCTTTTATGGTATTTTTTTCGTGCTAG	1.2

Sample 2
Target: CEBPD, bZIP domain (human)
Technique: DHFR protein complementation
Medium: yeast
Setting: single substitutions, most at no-binding floor
Reference: wild-type JUN-FOS pair
Reading: higher = stronger binding
Starting sequence: JUN, bZIP domain (human); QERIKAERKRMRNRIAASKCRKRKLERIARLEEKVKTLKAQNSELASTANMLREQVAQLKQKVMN; partner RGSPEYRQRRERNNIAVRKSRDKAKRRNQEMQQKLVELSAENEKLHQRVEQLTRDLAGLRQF
Variant	binding fitness
S43L	-1.27 natural log
L45K	-1.35 natural log
Q55N	-1.45 natural log
K34V	-1.38 natural log
N42M	-1.45 natural log
V35N	-1.39 natural log
L52H	-1.48 natural log
N42R	-1.48 natural log
A49K	-1.47 natural log
E33F	-1.45 natural log
T48I	-1.43 natural log
V35R	-1.49 natural log
R53C	-1.28 natural log

Sample 3
Target: CCND1, cyclin fold, Cln2 fusion (human)
Technique: yeast growth competition, sequencing
Medium: yeast
Setting: weak parent motif
Reference: not given
Reading: higher = stronger binding
Starting sequence: DNAH7 docking peptide (human); HELFQRLDFDNDG
Variant	normalised enrichment score
HELFQRLAFDNDG [D8A]	0.302
HEAFQRLDFDNDG [L3A]	0.31
HELFQRADFDNDG [L7A]	0.0567
HELFQRLDFANDG [D10A]	0.287
HELAQRLDFDNDG [F4A]	0.248
HELFQRLDFDNDA [G13A]	0.246
HELFQRLDFDNAG [D12A]	0.479

Sample 4
Target: ABI1, truncated, D143A, DHFR fusion (Arabidopsis thaliana)
Technique: DHFR PCA, deep sequencing
Medium: yeast
Setting: methotrexate growth selection, single substitutions
Added: (+)-ABA 0.39 µM
Reference: wild-type fitted maximum
Reading: higher = stronger binding
Starting sequence: PYL1, truncated, DHFR fusion (Arabidopsis thaliana); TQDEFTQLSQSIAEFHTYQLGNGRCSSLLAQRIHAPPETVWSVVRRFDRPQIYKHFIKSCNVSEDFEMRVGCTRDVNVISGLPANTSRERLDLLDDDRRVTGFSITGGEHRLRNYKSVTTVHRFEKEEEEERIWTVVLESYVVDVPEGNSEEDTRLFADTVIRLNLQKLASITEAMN; partner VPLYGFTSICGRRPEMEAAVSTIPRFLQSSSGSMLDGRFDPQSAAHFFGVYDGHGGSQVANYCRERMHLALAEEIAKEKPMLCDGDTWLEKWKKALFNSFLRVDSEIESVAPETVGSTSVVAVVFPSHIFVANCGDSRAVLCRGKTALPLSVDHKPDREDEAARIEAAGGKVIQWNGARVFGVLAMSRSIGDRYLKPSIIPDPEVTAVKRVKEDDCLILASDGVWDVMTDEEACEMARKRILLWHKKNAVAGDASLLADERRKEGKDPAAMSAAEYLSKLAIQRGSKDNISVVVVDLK
Variant	relative binding score [%]
M68A	9.46
R163I	-13.6
F56I	1.76
F47L	-7.65
V76S	-8.41
R24H	12.2
A170M	20.8
N149D	18.1
S171V	35.2

Sample 5
Target: Ras GTPase-activating protein-binding protein 1, C-terminal RGG region (G3BP1, Homo sapiens, UniProt Q13283)
UniProt Q13283, sequence (whole entry, looked up): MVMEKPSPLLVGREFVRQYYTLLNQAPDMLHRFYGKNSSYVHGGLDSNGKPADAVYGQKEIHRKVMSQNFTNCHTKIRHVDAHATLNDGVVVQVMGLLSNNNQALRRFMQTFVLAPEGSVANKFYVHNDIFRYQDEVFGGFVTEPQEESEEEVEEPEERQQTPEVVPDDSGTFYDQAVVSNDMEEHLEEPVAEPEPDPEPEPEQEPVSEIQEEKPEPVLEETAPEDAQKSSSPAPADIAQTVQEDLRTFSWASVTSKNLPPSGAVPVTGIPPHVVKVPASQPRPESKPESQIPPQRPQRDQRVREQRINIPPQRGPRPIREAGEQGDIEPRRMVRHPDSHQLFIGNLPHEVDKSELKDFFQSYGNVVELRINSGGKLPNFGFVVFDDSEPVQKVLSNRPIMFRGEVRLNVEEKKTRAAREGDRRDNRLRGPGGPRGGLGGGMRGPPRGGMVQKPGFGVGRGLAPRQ
Technique: RNA Bind-n-Seq
Form: RNA
Medium: in vitro
Tested at: 1 µM
Setting: whole 134-nt RNA, ends assumed
Added: 150 mM KCl
Reference: input library
Reading: higher = stronger binding
All sequences stand within: GGGAGUUCUACAGUCCGACGAUC … UGGAAUUCUCGGGUGUCAAGG
Sequence	log2 enrichment
CAGCAGUGAGUCUCUUCAGAAAACCCUUUUCUACAGUUAGGGUUGAGUUACUUCCUAUCAAGCCAGUACGUGCUAACAGGCUCAAUAUUC	-1.62
UCCUGUGCUACACAUCGUAUGUACCGAAUCGGGGUUUGGGGUUUUUGGGGUUUUUGGGGAAAGUAUUAUGUUACGCCGUUCGGAUCUGCA	2.26
UCAAGUCCUGUGCUACACAUCGUAUGUACCGAAUCGGGGAAGGAAGGGGAAGGGGAAAGUAUUAUGUUACGCCGUUCGGAUCUGCACUUC	0.659
CUGUGCUACACAUCGUAUGUACCGAAUCGGGGAAAAAGGGGAAAAAAAGGGGUUUUUGGGGAAAGUAUUAUGUUACGCCGUUCGGAUCUG	0.742
UGGCCCUGGUGGCAUGCGGGGAGGAAGAGGUGGCCUCAUGGAUCGUGGUGGUCACGGUGGAAUGUUCAGAGGUGGCCGUGGUGGAGACAG	2.24
ACCAUGCAGGUGGGCAUCUUUGGGAAGUGGGGCAAGGGGGGGAUAGGGAGGGGGGUAACACUUUGGGAACAGGUGGUCCCAGUUCGUUUC	1.63
CUCAAGUCCUGUGCUACACAUCGUAUGUACCGAAUCGGUUUGGUUUUUGGAGGAAAGUAUUAUGUUACGCCGUUCGGAUCUGCACUUCCA	-0.911
UGGGAGGUGGAUUUUGUUUAUUUUUUUAGCUCAUUUCCAGGGGUGGGAAUUUUUUUUUUAUAUGUGUCAUGAAUAAAGUUGUUUUUGAAA	3.62
UUCUCUCAUUUCUUCUGAAAUACAGGGCAAAUUGGAUCAAGGCAGUUCAGAUGUGUAGCAAACCCAGAGAAUUUGCAUUGGCUUUAGCCA	2.26
UCCUGUGCUACACAUCGUAUGUACCGAAUCGGGGAAAAAAAGGGGAGGGGUUUUUGGGGAAAGUAUUAUGUUACGCCGUUCGGAUCUGCA	1.78
CUGUGCUACACAUCGUAUGUACCGAAUCGGGGUUUUUGGGGUUUUUGGGGUUUUUUUGGGGAAAGUAUUAUGUUACGCCGUUCGGAUCUG	0.209
CCUGUGCUACACAUCGUAUGUACCGAAUCGGGGUUUUUUUGGGGAGGGGAAAAAAAGGGGAAAGUAUUAUGUUACGCCGUUCGGAUCUGC	0.198
UCCUGUGCUACACAUCGUAUGUACCGAAUCGGGAAAAAGGGUUUUUUUGGGAAAAAGGGAAAGUAUUAUGUUACGCCGUUCGGAUCUGCA	-0.912
GCAGGAAGUAAAAACAAAUGGAAAUGCUUCGGCUAGUGGCAGGGGUGGGGGUUGCUAAGGAAAGGGUGGGAUGGGAGUGGGUAAAGAGUU	1.99

Sample 6
Target: Histone acetyltransferase KAT6A, winged helix 1, GST fusion (KAT6A, Homo sapiens, UniProt Q92794, residues 1-85)
Technique: protein binding microarray
Form: double-stranded DNA, one strand shown
Medium: in vitro
Tested at: not given
Setting: 8-mer, flanks averaged, mean of 2 arrays, mostly near background
Reference: not given
Reading: higher = stronger binding
Residues (chain): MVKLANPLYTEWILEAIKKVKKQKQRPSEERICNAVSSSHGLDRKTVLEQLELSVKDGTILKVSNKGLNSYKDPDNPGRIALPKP
Sequence	E-score
GAAATATC	-0.181
AATTCATC	-0.0373
TATTTTAA	-0.157
ATGAGAAG	-0.165
CTCGCGCA	0.357
AAAGGCTC	-0.115
GAGTATCA	-0.0117
AGTTCACC	0.00732
CCTTGCGA	-0.0967
ACGACTTA	-0.0753
CGTTAACA	0.13
GGAGCATA	-0.0575
AGTCAGAT	-0.199
CATCGCCA	0.125
ATAGATCA	-0.243
GCTACGTA	0.0614
GCCGTTGA	0.255
TATTAGGA	-0.256
ACGACCTA	-0.127
CAGAGAAC	-0.109
GCTACAGC	-0.0356
ACTGGATA	-0.273
GAGGATCC	0.0113
TATCCTGA	-0.154
GGTACTAC	0.121

Further values, each from its own experiment
Molecule	target	test	test system	setting	scale	endpoint	value
PhoQ, residues 284 288 289 292 302 303 SASVAL	PhoP, residues 12 14 15 18 19 LQHIR (Escherichia coli, UniProt P23836)	Sort-seq, refers to: YFP reporter	E. coli	PhoQ-PhoP variant library, added: 10 µM Mg2+	reference: high Mg2+ state, higher = stronger signaling	fold induction	3.07

Some of these lines once more (sample 1):
Sequence	log fluorescence [z-score]
GACGAACTGAGTCCCGAGACGTGCTAG	-0.398
GCTTTTATGGTATTTTTTTCGTGCTAG	1.2
GACGGTTTCGACAATGGGGACGTGCTA	5.23
TTAGGACTGAGTCTCGATTAGTGCTAG	0.279
GACGATACCGGGTATCGAGACGTGCTA	1.22
TTAGAAGTGGGGTTTCGATTAGTGCTA	5.97
TCAGATCTCAGACTGTGACTGTGCTAG	-0.417
TTAGGTATCGACGTTCGGTTAGTGCTA	2.44
TTAGGTTTCGGTTCCGGATAGTGCTAG	10.4
TTAGGTATCGGGTATCGGTCAGTGCTA	6.39
